Results gathered from unrelated publications.
Protocols differ between the studies behind these lines. Numbers after ± are the reported error.

SMILES | assay | system | conditions | scale | measurement | value
CCOc1c([C@H](C)n2nc(C)c3c(N)ncnc32)cc(Cl)c(F)c1[C@@H]1CNC(=O)C1 | ECG | previously treated B-cell malignancy patients | oral, 45 mg once daily, baseline below thresholds | – | observations with PR ≤200 ms | 100%
C[C@H]1CNCCCN1S(=O)(=O)c1cccc2cncc(F)c12 | – | healthy adult men | ocular, 1 drop per eye twice daily, 8 days, adverse event | – | subjects with pityriasis rosea | 0%
Cc1cc(C)c(CNC(=O)c2cc(Cl)c3c(c2C)O[C@@](C)([C@H]2CC[C@H](N(C)C)CC2)O3)c(=O)[nH]1 | refers to: Hypercalcemia | human patients | oral, 200 mg once daily, 1 day onset day 14 | – | patients with grade ≥3 TEAE | 4.2%
CC[C@@H]1CN(C(=O)NCC(F)(F)F)C[C@@H]1c1cnc2cnc3[nH]ccc3n12 | population PK modelling | human | oral, immediate-release formulation, outliers excluded | – | absorption rate constant (Ka) | 2.77 h⁻¹
CCc1c2c(nc3ccc(OC(=O)N4CCC(N5CCCCC5)CC4)cc13)-c1cc3c(c(=O)n1C2)COC(=O)[C@]3(O)CC | – | mouse, intestine | intraperitoneal, 50 mg/kg, 24 h | – | tissue concentration | 8780 ± 4650 ng/g
COc1cccc(-n2nnnc2SCC(=O)Nc2c(C)cc(C)cc2C)c1 | – | octanol/buffer | pH 7.4 | – | logD | 3.98
O=C(Nc1ccc(Cl)c(O)c1)Nc1ccc(Cl)c(Cl)c1 | reverse phase LC, C18 | acetonitrile gradient, 0.1% formic acid | converted from retention time | baseline: Valko CHI standards | chromatographic hydrophobicity index | 103
O=C(NO)[C@H]1COC(c2c[nH]c3ccc(F)cc23)=N1 | – | octanol/buffer | pH 7.4 | – | logD | 1.7
CC1(C)OC[C@@H](c2ccc3ccccc3c2)N[C@@H]1c1cccc(F)c1 | shake-flask, 1-octanol/buffer | – | pH 7.4 | – | logD | > 4.7
CC[C@H](C)[C@H](NC(=O)[C@H](CO)NC(=O)[C@H](CCCNC(=N)N)NC(C)=O)C(=O)N[C@H]1CSSC[C@@H](C(=O)N[C@H](C(N)=O)[C@@H](C)O)NC(=O)[C@H](CCCNC(=N)N)NC(=O)[C@H](Cc2c[nH]cn2)NC(=O)[C@H](C)NC(=O)CNC(=O)[C@H](Cc2c[nH]c3ccccc23)NC(=O)[C@H](CC(=O)O)NC(=O)[C@H](CCC(N)=O)NC(=O)[C@H](Cc2ccc(O)cc2)NC(=O)[C@H](C(C)C)NC1=O | RP-HPLC, C18 | 28% acetonitrile isocratic | pH 7.4 | – | log retention factor | -0.322
CC1(C)OC[C@H](c2ccc(O)cc2)N[C@@H]1c1ccc(-c2ccccc2)cc1 | shake-flask, 1-octanol/buffer | – | pH 7.4 | – | logD | > 4.7
CN1CCN(c2cccc3c2CCN(C(=O)/C=C/c2c(-n4cnnn4)ccc(Cl)c2F)[C@@H]3C(=O)Nc2ccc(C(=O)O)cc2)C(=O)C1 | – | healthy human subjects | intravenous infusion, 10 mg/h, 2 h | – | subjects with headache | 0%
O=C(Nc1nc2cccc(-c3ccc(CN4CCS(=O)(=O)CC4)cc3)n2n1)C1CC1 | refers to: rheumatoid arthritis | rheumatoid arthritis patients | oral, 300 mg once daily, 4 weeks, any relatedness | – | treatment-emergent adverse events | 0%
C/C=C/C[C@@H](C)C(=O)[C@H]1C(=O)N[C@@H](C(C)C)C(=O)N(C)CC(=O)N(C)[C@@H](CC(C)C)C(=O)N[C@@H](C(C)C)C(=O)N(C)[C@@H](CC(C)C)C(=O)N[C@@H](C)C(=O)N[C@H](C)C(=O)N(C)[C@@H](CC(C)C)C(=O)N(C)[C@@H](CC(C)C)C(=O)N(C)[C@@H](C(C)C)C(=O)N1C | – | Sprague Dawley rat, plasma | intravenous infusion, 8.0 mg/h/kg, 4 h, 4.5 h constant infusion | – | total plasma concentration | 32400 ng/mL
OCc1nc2ccc(NCc3ccc(C(F)(F)F)cc3)cc2[nH]1 | – | Balb/c mouse, male, kidney | intravenous, 1 mg/kg, 6 h | – | tissue concentration | 59.9 ± 18.7 ng/g
O=[N+]([O-])c1ccc2c(c1)S(=O)(=O)C=C2 | – | PBS | 50 µM, 24 h, pH 7.4, 37 °C, together with: equimolar thiol | – | conversion to thiol conjugate | > 95%
Cc1cc(-c2nccc3c2ccn3CC(=O)Nc2ccc(-c3cnccn3)cn2)ccn1 | – | human | 20 mg once daily, multiple ascending dose | – | subjects with gastrointestinal disorders | 0%
Cc1ccc([C@@H]2O[C@H](CO)[C@@H](O)[C@H](O)[C@H]2O)cc1Cc1ccc(-c2ccc(F)cc2)s1 | – | Japanese type 2 diabetes patients | 100 mg, day 5, 24 h urine collection | baseline: baseline | urinary chloride excretion change | 18.2 mEq
Cc1ccc(N(C)C(=O)/C=C/c2ccco2)cc1 | hot plate test | mouse | oral, 30 mg/kg single dose, 30 min | – | licking latency | 15.3 ± 0.4 s

SMILES | assay | system | conditions | scale | measurement | value
CCN1/C(=C/C(C)=O)Sc2ccc(F)cc21 | – | cynomolgus monkey | oral, 100 mg/kg, 0.5 h post-dose | – | PR interval | 90 ± 3 ms
Cl.[2H]C([2H])([2H])CC(=O)c1cnc(NC(=O)C2CC2)cc1Nc1cccc(-c2ncn(C([2H])([2H])[2H])n2)c1OC | geometric mean | human | oral, 40 mg twice daily, day 7, fed, liquid, multiple dose | – | half-life | 8.41 h
C=CCn1c(=O)c2cnc(Nc3ccc(N4CCN(C)CC4)cc3)nc2n1-c1ccc2c(n1)[C@@](O)(CC)CC2 | – | A-427, female NOD/SCID mouse xenograft, plasma | oral, 20 mg/kg once daily | – | AUC(0-24) | 3300 ng·h/mL
CCCCOc1nc(N)c2c(n1)N(Cc1cccc(CN3CCCC3)c1)CC(=O)N2 | – | human | oral, 2 mg, drug interaction trial | – | grade 3-4 TEAE | 0%
CC(C)n1c(Nc2cccnc2)nc2cnc(Nc3ccc(N4CCN(C)CC4)cc3)nc21 | refers to: gastrointestinal disorders (SOC) | healthy human, male | oral, dose not given, CTCAE grade 1-3 | – | subjects with TEAE | 19%
CNc1ccc(-c2nc3ccc(O)cc3s2)cc1 [carbon-11 labelled] | ex vivo biodistribution | APP/PS1 mouse, AD model, heart | intravenous, 30 min | – | SUV | 0.441 ± 0.424
Cc1ccc(C(=O)N(CCCN)C(c2nc3snc(C)c3c(=O)n2Cc2ccccc2)C(C)C)cc1 (centres unmarked) | – | human patients | intravenous, 13 mg/day | – | grade ≥3 fatigue patients | 0%
CCOc1c([C@H](C)n2nc(C)c3c(N)ncnc32)cc(Cl)c(F)c1[C@@H]1CNC(=O)C1 | – | rat plasma | 5 ng/mL, three freeze-thaw cycles | baseline: nominal concentration | stability relative error | 7.3%
O=C(Nc1ccccc1)c1cc([N+](=O)[O-])ccc1[76Br] | – | heparinized rat blood | 5 min | – | intact radiotracer | 15%
CCCCC(CC)COC(=O)c1ccc(O)cc1 (centres unmarked) | – | empty Transwells without cells | 5 µM, 60 min, apical to basolateral | – | mass balance | 13%
Cc1c(Cl)c(C)[n+]([O-])c(Cl)c1-c1noc(-c2cc(O)c(O)c([N+](=O)[O-])c2)n1 | glucuronidation, substrate | human intestinal microsomes | pH 7.5 | – | Km | 41.9 ± 26.9 µM
O=C1CCc2ccc(OCCCCN3CCN(c4cccc(Cl)c4Cl)CC3)cc2N1 | refers to: Hypotension | genotyped patients, CYP2D6 poor metabolizers | dose not given, long-acting oral or depot | – | adverse event incidence | 11%
CN(CCC(=O)O)C(=O)c1ccc2c(c1)CC[C@@H]1[C@@H]2CC[C@]2(C)C(c3cncc(F)c3)=CC[C@@H]12 | – | premenopausal women with endometriosis pain, serum | 60 mg twice daily, end of treatment, completers, mean | baseline: baseline | direct bilirubin change | 0.167 mg/dL
C[C@H]1OC[C@H](C2CCCCC2)N[C@@H]1c1cccc(Cl)c1 | shake-flask, 1-octanol/buffer | – | pH 7.4 | – | logD | > 4.7
C=CCN1CC(=O)N2[C@@H](Cc3ccc(O)cc3F)C(=O)N(Cc3cccc(N4CC(N5CCN(CC)CC5)C4)n3)C[C@@H]2N1C(=O)NCc1ccccc1 | – | advanced solid tumour patients | oral, 10 mg twice daily, any grade, dose-escalation | – | treatment-related diarrhoea | 0%
CCNC(=O)[C@@H]1CCCN1C(=O)[C@H](CCCNC(=N)N)NC(=O)[C@H](CC(C)C)NC(=O)[C@@H](CC(C)C)NC(=O)[C@H](Cc1ccc(O)cc1)NC(=O)[C@H](CO)NC(=O)[C@H](Cc1c[nH]c2ccccc12)NC(=O)[C@H](Cc1c[nH]cn1)NC(=O)[C@@H]1CCC(=O)N1 | – | healthy female volunteers | dose not given, all treatment groups combined | – | headache incidence | 43%
Cc1cc(Nc2cc3ncccc3c(N[C@@H]3C[C@H]4CC[C@@H](C3)N4CCC#N)n2)n[nH]1 | – | healthy human subjects | oral, 10 mg, 2 weeks, single ascending dose | – | skin subcutaneous disorders incidence | 0%
CNC(=O)c1c(C)oc2cc(Oc3ncnc4cc(OC)c(OC)cc34)ccc12 | population PK model | human, female | oral | baseline: male subjects | lower apparent clearance | 17%
CC(C)(C(=O)N1CCOc2c(C#N)cncc2C1)C(F)F | refers to: Vascular disorders | human | oral, 15 mg twice daily, 14 days, multiple ascending dose | – | subjects with adverse event | 0%

SMILES | assay | system | conditions | scale | measurement | value
C[C@@H](Oc1ccc(S(C)(=O)=O)cc1C(=O)N1C[C@@H]2C[C@]2(c2cc(C(F)(F)F)on2)C1)C(F)(F)F | – | elderly humans, plasma | oral, 25 mg once daily, single dose, geometric mean | – | %AUC extrapolated | 36.2%
N#Cc1ccc2c(c1)[C@H]1CCCN(C(=O)c3ccc4[nH]cnc4c3)[C@H]1C2 | – | human, plasma | 240 mg once daily, day 21 | – | pre-dose plasma concentration | 1810 nmol/L
CCC(=O)N(CCC(c1ccc2c(c1)OCO2)c1ccccc1OC)Cc1ccccc1 (centres unmarked) | – | female athymic nude mouse, blood | i.p., 60 mg/kg twice daily, 14 days, group mean | – | GLU | 194 mg/dL
C/C(=N\c1ccc(O)cc1)c1cc2ccccc2n1C | – | Sprague-Dawley rat, male, plasma | intravenous bolus, 5 mg/kg, two-compartment model | – | distribution half-life | ~0.267 h
CCC(CC)[C@H]1COC[C@@H](c2ccc(C(C)(C)C)cc2)N1 | shake-flask, 1-octanol/buffer | – | pH 7.4 | – | logD | > 4.7
NC1(C(=O)N[C@@H](CCO)c2ccc(Cl)cc2)CCN(c2nc[nH]c3nccc2-3)CC1 | – | metastatic CRPC patients | 480 mg b.i.d., grade 3 to 4, treatment-related, together with: enzalutamide 160 mg daily | – | incidence of lower abdominal pain | 0%
O=c1c2cc(Cl)c(CO)cc2[nH]c(=S)n1Cc1cccnc1 | – | mouse | oral, 50 mg/kg | – | oral bioavailability | 0.59%
COC(=O)c1ccccc1NC(=O)CSc1nnc(C23C[C@H]4C[C@@H](C2)C[C@@H](C3)C4)n1C | – | octanol/buffer | pH 7.4 | – | logD | 3.91
C[C@@H](Nc1cc(F)cc(F)c1)c1cc(C(=O)N(C)C)cc2c(=O)cc(N3CCOCC3)oc12 | refers to: Colitis | advanced solid tumour patients | oral, dose not given, dose expansion | – | related serious adverse events | 0%
Cc1cc(NC2CCN(C(=O)OC3CCN(C(=O)/C=C/CN(C)C)C3)CC2)n2ncc(C(C)C)c2n1 (centres unmarked) | – | patients with advanced solid tumours | dose not given, QD arm, grade 3 or higher | – | patients with Diarrhea | 5%
Cc1c(-c2ccc(N3CCc4cccc(C(=O)Nc5nc6ccccc6s5)c4C3)nc2C(=O)O)cnn1CC12CC3(C)CC(C)(C1)CC(OCCNCC[C@H](O)CO)(C3)C2 | – | anaesthetized male beagle dog | iv infusion, 0.01 mg/kg/min, 75 min | – | plasma concentration | < 2 ng/mL
CNCc1ccc(-c2[nH]c3cc(F)cc4c3c2CCNC4=O)cc1 | refers to: Diarrhea | human patients | oral, 600 mg twice daily, grade 3 | – | patients with adverse event | 0%
CC1(C)CN(CCCCC(=O)N[C@@H](CCC(=O)O)C(=O)N[C@@H](CCC(=O)O)C(=O)N[C@H](CCCCNC(=O)CCCCCCC(=O)NCCCC[C@H](NC(=O)N[C@@H](CCC(=O)O)C(=O)O)C(=O)O)C(=O)O)CC[N]2CC(C)(C)[S][Tc]2(=[O])[S]1 (some centres unmarked) [technetium-99m labelled] | – | human plasma | 6 h, 37 °C | – | intact radioligand | 96%
C=CC(=O)N1CCC[C@@H](n2nc(-c3ccc(Oc4ccccc4)cc3)c3c(N)ncnc32)C1 | – | MES buffer | 100 µM, 23 h, pH 5.5, 37 °C, together with: cysteine 10 mM | – | cysteine adduct formation | 9%
CCOC(=O)N1C[C@@H](c2cc(Cl)cc(Cl)c2)N[C@@H](c2ccc(N3CCCC3)cc2)C1 | shake-flask, 1-octanol/buffer | – | pH 7.4 | – | logD | > 4.7
CC[C@@H]([C@H](C)O)n1ncn(-c2ccc(N3CCN(c4ccc(OC[C@@H]5CO[C@@](Cn6cncn6)(c6ccc(F)cc6F)C5)cc4)CC3)cc2)c1=O | – | rat plasma | 800 ng/mL, 21 days, -80 °C | baseline: nominal concentration | stability relative error | -12.4%
CSc1cc(C)nc(SC)c1NC(=O)CN1CCN(CCSc2nc3ccccc3[nH]2)CC1.Cl | – | mouse, cerebrum | intranasal, 7 days daily, 120 min, 0.01 N HCl 50 µL, LLOQ 0.5 ng/g | – | tissue concentration | not detected
c1ccc(CN2CCCN3CCN(Cc4ccccc4)CCCN(CC2)Cc2cccc(n2)C3)cc1 | – | 64Cu complex | 24 h, pH 7.4, 37 °C, together with: DOTA excess | – | intact complex | 93%
